Experimental data gathered from unrelated publications.
Numbered parts are unrelated; each lists some results of a single study. Positions count from the first letter of the parent shown.

Series 1
Target: Ras GTPase-activating protein-binding protein 1, C-terminal RGG region (G3BP1, Homo sapiens, UniProt Q13283)
Chain of UniProt Q13283 (whole entry, looked up): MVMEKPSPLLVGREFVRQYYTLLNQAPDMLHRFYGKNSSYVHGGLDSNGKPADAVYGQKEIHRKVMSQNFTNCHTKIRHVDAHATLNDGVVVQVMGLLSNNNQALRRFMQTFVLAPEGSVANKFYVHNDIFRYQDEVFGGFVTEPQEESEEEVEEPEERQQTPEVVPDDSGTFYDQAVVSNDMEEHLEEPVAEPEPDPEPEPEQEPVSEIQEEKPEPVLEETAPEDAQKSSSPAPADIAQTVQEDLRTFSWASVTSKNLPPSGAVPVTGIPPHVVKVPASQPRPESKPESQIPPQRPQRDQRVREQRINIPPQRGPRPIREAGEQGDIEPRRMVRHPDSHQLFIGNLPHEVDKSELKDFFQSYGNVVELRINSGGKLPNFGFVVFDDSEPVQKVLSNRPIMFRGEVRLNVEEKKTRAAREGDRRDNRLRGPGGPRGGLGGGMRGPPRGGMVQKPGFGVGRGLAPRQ
Method: RNA Bind-n-Seq
Molecule type: RNA
Medium: in vitro
Concentration: 1 µM
Notes: whole 134-nt RNA, ends assumed
Added: 150 mM KCl
Baseline: input library
Reading: higher = stronger binding
With `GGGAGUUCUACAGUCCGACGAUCGUCCUGUGCUACACAUCGUAUGUACCGAAUCGGUUUUUGGGUUUUUGGGGUUUUUGGGAAAGUAUUAUGUUACGCCGUUCGGAUCUGCACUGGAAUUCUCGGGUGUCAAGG` the log2 enrichment was -0.747.
For `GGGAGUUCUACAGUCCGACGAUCUGGGGACAAGCUGACAGCAGCCAUGGCGAGCGGCAGUGGAGACAGCGUCACCCGUCGGAGCGUGGCAUCACAGUUUUUCACUCAAGAGGAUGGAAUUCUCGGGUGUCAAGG`, the log2 enrichment was -2.
For `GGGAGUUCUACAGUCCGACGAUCCUCAAGUCCUGUGCUACACAUCGUAUGUACCGAAUCGGAAGGAAGGGAAGGGGAAAGUAUUAUGUUACGCCGUUCGGAUCUGCACUUCCAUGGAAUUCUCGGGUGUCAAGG`, the log2 enrichment was -1.08.
`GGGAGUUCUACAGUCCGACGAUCACCAUGCAGGUGGGCAUCUUUGGGAAGUGGGGCAAGGGGGGGAUAGGGAGGGCGGUAACACUUUGGGAACAGGUGGUCCCAGGUCGUUUCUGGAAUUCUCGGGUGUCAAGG` has a log2 enrichment of 2.23.
For `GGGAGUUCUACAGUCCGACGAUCGCAGGAAGUAAAAACAAAUGGAAAUGCUUCGGAUAGUGGCAGGGGUGGGGGUUGCUAAGGAAAGGGUGGGAUGGGAGGGGGUAAAGAGUUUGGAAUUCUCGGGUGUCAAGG`, the log2 enrichment was 2.4.
With `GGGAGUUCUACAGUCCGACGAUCUCCUGUGCUACACAUCGUAUGUACCGAAUCGGGGAAAAAGGGGAAAGGGGAAAAAGGGGAAAGUAUUAUGUUACGCCGUUCGGAUCUGCAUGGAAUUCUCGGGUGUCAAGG` the log2 enrichment was 1.51.
`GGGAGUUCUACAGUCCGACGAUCAGUCCUGUGCUACACAUCGUAUGUACCGAAUCGGGGCCCCGGGGCCCCGGGGCCCCGGAAAGUAUUAUGUUACGCCGUUCGGAUCUGCACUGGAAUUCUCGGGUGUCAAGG` has a log2 enrichment of -2.03.
With `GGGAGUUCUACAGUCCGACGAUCCUCAAGUCCUGUGCUACACAUCGUAUGUACCGAAUCGGGGAAGGAAGGGAAGGAAAGUAUUAUGUUACGCCGUUCGGAUCUGCACUUCCAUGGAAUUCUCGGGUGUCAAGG` the log2 enrichment was -1.17.
`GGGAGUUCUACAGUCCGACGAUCUCCUCAAGUCCUGUGCUACACAUCGUAUGUACCGAAUCGGUGGGUGGUGGGGAAAGUAUUAUGUUACGCCGUUCGGAUCUGCACUUCCAGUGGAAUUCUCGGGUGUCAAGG` gave a log2 enrichment of 0.409.
For `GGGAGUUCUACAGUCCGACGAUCGCAGGAAGUAAAAACAAAUGGAAAUGCUUCGGAUAGAGGCAGGGGUGGGGGUUGCUAAGGAAAGGGUGGGAUGGGAGUGGGUAAAGAGUUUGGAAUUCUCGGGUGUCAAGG`, the log2 enrichment was 1.81.
With `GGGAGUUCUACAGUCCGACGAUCUCCUGUGCUACACAUCGUAUGUACCGAAUCGGGUUUGGGUUUUUUUGGGAAAAAAAGGGAAAGUAUUAUGUUACGCCGUUCGGAUCUGCAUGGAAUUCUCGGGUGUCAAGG` the log2 enrichment was -0.283.
For `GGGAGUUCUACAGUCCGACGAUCCAAGUCCUGUGCUACACAUCGUAUGUACCGAAUCGGGAAAGGGUUUGGGUUUGGGAAAGUAUUAUGUUACGCCGUUCGGAUCUGCACUUCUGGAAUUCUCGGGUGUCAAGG`, the log2 enrichment was 2.01.
The log2 enrichment of `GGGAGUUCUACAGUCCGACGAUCCAAAGACAACACGCACCCACACAGACACAGAGGGAAGGGGUUGGGAUGGGGACAGGGUGCACAGCAGGGCGGGGUAGGACCCCAGCCCCUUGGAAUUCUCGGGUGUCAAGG` is reported as -0.441.
For `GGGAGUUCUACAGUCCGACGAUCCACAGACAACACGCACCCACACAGACAUAGAGGGAAGGGGUUGGGAUGGGGACAGGGUGCACAGCAGGGCGGGGUAGGACCCCAGCCCCUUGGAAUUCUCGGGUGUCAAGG`, the log2 enrichment was -1.53e-05.

Series 2
Target: CCND3, cyclin fold, Cln2 fusion (human)
Method: yeast growth competition, sequencing
Medium: yeast
Notes: weak parent motif
Baseline: not given
Reading: higher = stronger binding
Starting sequence: CDC42EP1 docking peptide (human); SLVVGKLSFDSSP
For `SLVVGALSFDSSP [K6A]`, “normalised enrichment score” read -0.197.
`ALVVGKLSFDSSP [S1A]`: “normalised enrichment score” -0.0413.
`SLVVGKLSADSSP [F9A]`: “normalised enrichment score” -0.22.
`SLAVGKLSFDSSP [V3A]` — result for “normalised enrichment score”: -0.277.
`SLVVGKLSFDASP [S11A]`: “normalised enrichment score” -0.274.
`SLVVGKLSFASSP [D10A]`: “normalised enrichment score” -0.0792.
For `SLVVGKLSFDSAP [S12A]`, “normalised enrichment score” read -0.168.

Series 3
Target: Interferon regulatory factor 5, full length, phosphomimetic (IRF5, Homo sapiens, UniProt Q13568-2, residues 1-514, K96S/S451D/S453D/S456D/S462D)
Method: protein-binding microarray
Molecule type: double-stranded DNA, one strand shown
Medium: in vitro
Concentration: 250 nM
Notes: 60-bp whole probe
Added: salmon DNA 0.4 mg/ml
Baseline: random background probes
Reading: higher = stronger binding
All sequences stand within: GCCTAGCAC … GTCTTGATTCGCTTGACGCTGCTG
For `GACGAACTGAGTCTCGGGACGTGCTAG`, the log fluorescence was -0.323 z-score.
`TCCACTTGTCTTTTCATTTTGTGCTAG` has a log fluorescence of 1.57 z-score.
With `TGAGATCTCAGTCTCGATTAGTGCTAG` the log fluorescence was 0.618 z-score.
For `GACAATTTCAGACTGGAGACGTGCTAG`, the log fluorescence was 0.488 z-score.
`GACGGTATCCTCATCCTGACGTGCTAG` gave a log fluorescence of -0.185 z-score.
The log fluorescence of `GACGATTTGAGTCTCGAGACGTGCTAG` is reported as -0.00922 z-score.
With `TTAGAACTGCGTCTCGATTAGTGCTAG` the log fluorescence was -0.155 z-score.
The log fluorescence of `TCACTTTTTTTAATTGAACTGTGCTAG` is reported as 0.928 z-score.
With `TTAGATTTCAGTTTCGACTAGTGCTAG` the log fluorescence was 8.8 z-score.
`TTAGGTATCATTCTCCTTTAGTGCTAG` has a log fluorescence of 1.3 z-score.
With `TTTTTTATCAATCATTTTCGTGTGCTA` the log fluorescence was 2.72 z-score.
`GACGATTTCGGGTTTCGAGATGTGCTA` has a log fluorescence of 4.83 z-score.
`TTAGGTTTCGACACTGGGTTCGTGCTA` gave a log fluorescence of 5.54 z-score.
`TTAGGTCTCGGTCTCGGTCAGTGCTAG` gave a log fluorescence of 0.915 z-score.
`TTAGGATTCCTTATCCTTTAGTGCTAG` gave a log fluorescence of -0.0331 z-score.
`TTACATATCAGTATCGATTAGTGCTAG` gave a log fluorescence of 8.07 z-score.
For `GACGGACTGGGGTCTCGGGACGTGCTA`, the log fluorescence was -0.678 z-score.
`GACGAACTGGAGTTTCGAGACGTGCTA` has a log fluorescence of 3.25 z-score.
`TTAGGATCCGGTTTCGGTTAGTGCTAG` gave a log fluorescence of 9.01 z-score.
For `GCACCTCTAGACTCTAAATTCGTGCTA`, the log fluorescence was 0.0132 z-score.
`CAGGGAATTCACCTGCTGACGTGCTAG` gave a log fluorescence of -0.279 z-score.
`GACGGCTTCGACTATCGGGACGTGCTA` gave a log fluorescence of 0.859 z-score.
For `TCATCTCTCTATTCAGAACTGTGCTAG`, the log fluorescence was 0.581 z-score.
`TTAGGGTTCGGTATCGGTTAGTGCTAG` has a log fluorescence of 4.98 z-score.
`GACGGTTTAGGTATCGGGACGTGCTAG` has a log fluorescence of 1.24 z-score.

Series 4
Target: RING finger protein unkempt homolog, zinc fingers 1-6, GST-SBP tag (UNK, Homo sapiens, UniProt Q9C0B0, residues 30-357)
Chain of UniProt Q9C0B0 (30-357, looked up): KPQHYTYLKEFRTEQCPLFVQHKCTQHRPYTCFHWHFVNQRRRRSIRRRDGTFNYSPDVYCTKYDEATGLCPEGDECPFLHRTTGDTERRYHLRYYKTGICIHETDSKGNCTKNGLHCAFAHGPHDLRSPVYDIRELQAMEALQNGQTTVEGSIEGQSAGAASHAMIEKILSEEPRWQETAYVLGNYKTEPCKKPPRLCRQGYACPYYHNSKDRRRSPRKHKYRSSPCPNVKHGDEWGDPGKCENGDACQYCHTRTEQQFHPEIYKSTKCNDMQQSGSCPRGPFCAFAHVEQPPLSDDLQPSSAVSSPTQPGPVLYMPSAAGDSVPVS
Method: RNA Bind-n-Seq
Molecule type: RNA
Medium: in vitro
Concentration: not given
Notes: RNA with constant flanks, human and mouse sites, ends assumed
Baseline: input RNA pool
Reading: higher = stronger binding
The bound/input enrichment of `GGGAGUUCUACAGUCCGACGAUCCCCCACCCCUUUGCCUCUUUCCACCCGGGCCUCAACCCUUUGGAGCGGGAGAGACUGGCACUAGCAGGUCCUCAGCUGCGGCCUGAGAUGAGUUACCCAGACAGACUGGCAGCCGAGCGCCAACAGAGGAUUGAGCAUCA` is reported as 0.108 ratio.
`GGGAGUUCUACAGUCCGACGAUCGAUGCUUCCGACUUUGAGCACAUUACAGCAGAGACACCCUCAAGGCCCCUGUCCUCCACCAGUAACCCCUUUAAGAGUUCAAAGUGUUCUACUGCUGGGAGUUCCCCAAACAGCGUAAGUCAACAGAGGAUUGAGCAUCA` has a bound/input enrichment of 0.417 ratio.
`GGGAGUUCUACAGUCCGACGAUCGCACAAAUCUUUCCCACUAGCCAUUUAAUAAGUUAAAAAAAGAUACAAAAACAAAAACCUACUAGUCUUGAACAAACUGUCAUACGUAUGGGACCUACACUUAAUCUAUAUGCUUUACACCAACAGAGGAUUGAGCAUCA` gave a bound/input enrichment of 48.3 ratio.
`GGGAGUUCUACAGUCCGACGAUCAUUCCAUAUUUAUUACGACUGAGACAAAUUAAGGAUGAAACUCUUCAGGCUGCAGUUAGAGAAAUUUUGGCCCUAAUUGGCUAUGUGGAUCCAGUGAAAGGGAGAGGAAUCCGAAUUCUCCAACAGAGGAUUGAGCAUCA` has a bound/input enrichment of 0.626 ratio.
The bound/input enrichment of `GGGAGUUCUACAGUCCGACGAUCUCUGAAAUCAGCAGAGGCUGUUUUGCCUAACAGAGGAAAAGUGGUAAAAGCCAGAGCCUCUCCUUUAUGGAGACAGCAUUGUUCCCUUCCUGGUCAGGCAGGAGAAAGAAGCUCUUCGCUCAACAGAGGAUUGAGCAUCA` is reported as 0.117 ratio.
`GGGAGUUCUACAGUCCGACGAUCACAGCUAGUGGCUGCUUGGUUGAAAGGAGGCAUUGACUUCAGCAACACAAUUAUGUUUUUAUUAGGAAUGUGCCAUACCGAAUCCGUGUGCGGCUGUCCAGAAAACGUAAUGAGGAUGAACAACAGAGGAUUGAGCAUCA` has a bound/input enrichment of 0.15 ratio.
`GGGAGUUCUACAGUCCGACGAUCGAAUUUGGACAAGUUUUGGCUUCCUGUUCUUUUGACCGAACAGCAGCUGUAUGGGAAGAAAUAGUGGGAGAAUCAAACGAUAAACUUCGAGGACAGAGUCACUGGGUGAAGAGGACAACUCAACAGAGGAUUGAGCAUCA` gave a bound/input enrichment of 0.154 ratio.
`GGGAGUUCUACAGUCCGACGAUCGGAGGCCACCCCAAACCCCAGCCCCAACUCCAGGGGCACCUAUGAGAUGGCCAUGCUCAACCCCCCUCCCAGACAGGCCCUCCCUGUCUCCAGGGCCCCCACCGAGGUUCCCAGGGCUGGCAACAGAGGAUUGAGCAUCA` gave a bound/input enrichment of 0.342 ratio.
`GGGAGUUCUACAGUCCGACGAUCUAUUCCAUAAAACAAGAAGGACAAAACUCUCAAAAAUGUAUUUCAAGUCAGUGACCAGAAAAAUCCCACCCCUUGCCCUUUCCCCAAAGGACCUUUUCUGUACAUGACACUUUUUUGUUGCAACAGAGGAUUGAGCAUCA` gave a bound/input enrichment of 0.675 ratio.
For `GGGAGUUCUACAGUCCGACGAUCACGCCAGUGUCCUAUGACCAGGGGGCAAAUAUGGCCAAACAGAUUGGAGCAGCUACUUAUAUCGAAUGCUCAGCUUUACAGUCGGAAAAUAGCGUCAGAGACAUUUUUCACGUUGCCACCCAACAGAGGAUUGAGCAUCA`, the bound/input enrichment was 0.142 ratio.
`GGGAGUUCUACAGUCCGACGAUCUUUGGUGUUAUCCGGUCACUUAUGGCGUUUAGGCUAACAGGUGGCACCAAAGACUACAUUGUAGUUGGCAGUGACUCAGGCCGGAUUGUUAUCUUGGAAUACCAGCCAUCAAAGAAUAUGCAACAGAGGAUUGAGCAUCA` gave a bound/input enrichment of 0.766 ratio.
